Assay results collected from several papers.
A part holds a random share of what one study measured. Substitutions count along the parent as printed.

Block 1
Target: RNA binding protein fox-1 homolog 2, RRM domain, GST-SBP tag (RBFOX2, Homo sapiens, UniProt O43251-10, residues 100-194)
Technique: RNA Bind-n-Seq
Molecule type: RNA
Medium: in vitro
Tested at: 365 nM
Notes: natural RNA segment, single round, ends assumed
Reference: no-protein control
Reading: higher = stronger binding
Shared flanks, not repeated: GGGAGUUCUACAGUCCGACGAUC … UGGAAUUCUCGGGUGCCAA
Construct (chain): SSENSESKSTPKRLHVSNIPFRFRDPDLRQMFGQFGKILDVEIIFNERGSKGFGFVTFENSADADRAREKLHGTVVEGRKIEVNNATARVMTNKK
Oligonucleotide | RBNS enrichment (R)
AUGCUGACGACUGAAGCCCCAUAUAGACCCGUGAUGGGUGGCUGCUGGAAUCCCUUACUCUGGCCCUUGGACUUUGGAAAUGUGGGAGGGGCAGGGAACAAUAUGGGGAA | 1.22
CAGAAAGGUUCCAUUUAUGUUUUACUCCUGAAAGUGAAACCCUCUUAGGCAACUUGUUUCAUAUUCUGGGCAUUUUAGUAGCUACAGUAUUUUGCAUUUAAAAUGUAAUU | 0.87
AUUAAUAGUUUUCAAAGGGCCAUUUUUUAAAAUCCUCUGGGCAUUUUCUUUCAGCUGUUUGUUAGUUUUUGCUUUAUUUAAAGCAUAUUUAAGUUAUUUUAAUGUGGUUU | 1.31
UCCUGCGGAAGCAGUGACCUCUGACCCCUGGUGACCUUCGCUUUGAGUGCCUUUUGAACGCUGGUCCCGCGGGACUUGGUUUUCUCAAGCUCUGUCUGUCCAAAGACGCU | 0.154
CCACAAGGCUUUGAGACACAUCCAGAGAUGAGGUGGUAUCAGACCUGUCCUUCCACACCAAAGACAUGGUGGUGCUGCUGCUGCUGCUUCUGCUGGUGAAGUCUGUGUCC | 0.39
CUAGAAAAAAAAAAAAAAAAGCCCUUUUCAGUUUGUGCACUGUGUAUGGUCCGUGUAGAUUGAUGCAGAUUUUCUGAAAUGAAAUGUUUGUUUAGACGAGAUCAUACCGG | 0.888
AGUGUCUCUUUACAUGGAUAUUUUGCCUGUCAAAUGAAUUGAUAGCUAAUAAAAGUCAACAAGCCAUAGAAUCUAAUUCUUUAUUGCAGAAUUACUUGUUUUAACAGAAU | 0.464
GGUGCUGCCAGCUGCUCCCAAUGUGCCGAUGUCCGUGGGCAGAAUGACUUUUAUUGAGCUCUUGUUCCGUGCCAGGCAUUCAAUCCUCAGGUCUCCACCAAGGAGGCAGG | 0.241
CCAAGGGGUGGCAGCAUCACUCUGUUCUAGCAUUCUUUGUGGAGAUGGUCUGGUGCCUAGCUGGGAGUGAGCAGCAGCCCAUCCCCUGUUCACUUUCUCUAGCCCAUCAU | 0.982
GGAAGCGUCUUGGGGAGGGUGGUAGAAGCACAAAAGAAUCACAGAAUUAUUUUCUAAGCAAAAUAACACUUGUUUGUUUAUGGCCCAUGGAUCAUAGCUUCCUGUCCCCA | 0.528
CACACCUGGGGUGCUCGGGGGUAGGGCUGCCAUGCUGCAGAGCUGAUGGAGUGAUGUUGUGGGCACAAGGCAUCUGUCAGCUGCCUCCUUUAACAGCCAUGCCUUCUGGA | 0.489
GGCUCUUCCCGCCUGCAUCCCUCCCCUGUCCACCUUUGUCCAGUGCUAGAUUCACCUCACCCCGGGCAGGAGUGGGGAUGUGGGCGCUCUGUGGUCCUCCCCUCCUGACC | 1.43

Block 2
Target: Max dimerization protein 1, bHLH-zipper, MAX partner unstated (MXD1, Homo sapiens, UniProt Q05195, residues 56-136)
Technique: protein-binding microarray
Molecule type: double-stranded DNA, one strand shown
Medium: in vitro
Tested at: not given
Notes: k-mer, scored over probes, only values ≥0.25
Reading: higher = stronger binding
Construct (chain): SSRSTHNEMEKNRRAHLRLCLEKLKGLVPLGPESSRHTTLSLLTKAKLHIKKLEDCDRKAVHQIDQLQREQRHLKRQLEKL
Oligonucleotide | E-score
CGTGGCAC | 0.299
ATGTGTCC | 0.346
ACGTGCAG | 0.343
ACACGAGA | 0.395
AGCACACC | 0.258
GACATGCA | 0.309
AGGGTGGG | 0.276
CATGATCG | 0.274
ACGTGTCT | 0.394
ACGTGCAT | 0.395
CCCCCCCG | 0.306
CCCCCTCC | 0.327
CGCGTGCC | 0.368
CGCATGCA | 0.401
ATGTGGGG | 0.3
CCAGCACG | 0.312
GACCCGCC | 0.318
CGCCACGC | 0.398
ATAACACG | 0.329
CATGGCCG | 0.265

Block 3
Target: ABI1, truncated, D143A, DHFR fusion (Arabidopsis thaliana)
Technique: DHFR PCA, deep sequencing
Medium: yeast
Notes: methotrexate growth selection, single substitutions
Together with: (+)-ABA 0.032 µM
Reference: wild-type fitted maximum
Reading: higher = stronger binding
Parent: PYL1, truncated, DHFR fusion (Arabidopsis thaliana); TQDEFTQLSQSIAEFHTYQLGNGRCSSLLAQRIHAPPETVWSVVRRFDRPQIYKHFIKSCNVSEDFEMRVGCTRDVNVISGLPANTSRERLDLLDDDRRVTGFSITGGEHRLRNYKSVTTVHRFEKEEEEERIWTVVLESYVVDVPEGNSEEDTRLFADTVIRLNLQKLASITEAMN
Change | relative binding score [%]
V142A | 24.2
L20N | 17
T86N | 19.7
S42A | 26.4
H122A | 5.02
N61K | 57.9
R45T | 1.57
F56R | 0.594
S27I | -9.28
A84L | 20.5
C25I | 45.1
H110T | 50.7
F124E | 4.39
R99S | 3.69
C60K | -6.91
R163E | 5.93
V136Q | -5.73
K126M | 59.1
Y18A | 1.21
N149H | 31.2
E4R | 5.17
E139P | 3.02
I57F | -3.81
S104M | 1.63

Block 4
Target: Prothrombin, mature alpha-thrombin (F2, Homo sapiens, UniProt P00734)
Technique: aptamer microarray, sandwich
Molecule type: DNA with 2'F-ANA
Medium: in vitro
Tested at: 200 nM
Notes: whole 15-mer aptamer, many near background
Together with: Cy3 exosite-II aptamer, 400 nM
Reading: higher = stronger binding
Oligonucleotide: GGTTGGTGTGGTTGG
Modification | mean fluorescence intensity [a.u.]
2'F-ANA at 1 2 3 4 5 8 9 10 12 13 14 15 | 54.6
2'F-ANA at 1 2 4 6 7 9 10 11 12 13 14 15 | 66.1
2'F-ANA at 1 2 3 4 5 6 8 10 11 12 14 15 | 52.1
2'F-ANA at 2 3 6 7 8 9 11 14 | 325
2'F-ANA at 7 9 12 13 | 672
2'F-ANA at 2 3 4 5 7 9 10 14 15 | 50.7
2'F-ANA at 2 3 4 10 11 12 13 15 | 271
2'F-ANA at 1 5 13 14 | 42
2'F-ANA at 2 5 6 7 9 12 13 15 | 115
2'F-ANA at 1 2 3 5 7 9 10 12 15 | 62.5
2'F-ANA at 1 3 5 8 9 10 11 | 48.5
2'F-ANA at 2 3 5 6 7 8 10 12 13 14 15 | 66.3
2'F-ANA at 1 3 4 10 15 | 66.6
2'F-ANA at 2 6 7 9 11 13 | 243
2'F-ANA at 1 2 3 4 8 10 11 12 13 14 | 55.8
2'F-ANA at 3 4 14 | 364
2'F-ANA at 1 3 4 5 7 12 | 158
2'F-ANA at 1 5 6 8 10 13 14 15 | 48.9
2'F-ANA at 1 2 5 7 9 11 12 15 | 88.3
2'F-ANA at 1 2 3 5 9 10 13 14 | 46.4
2'F-ANA at 1 2 7 9 11 15 | 136
2'F-ANA at 3 5 6 9 10 15 | 62.4
2'F-ANA at 1 4 5 6 7 9 10 14 15 | 45.9
2'F-ANA at 1 2 4 8 9 11 12 14 | 65.4
2'F-ANA at 1 2 3 5 6 7 8 9 10 15 | 48.3

Block 5
Target: UBE2U UBC core domain (UniProt Q5VVX9)
Technique: yeast two-hybrid
Medium: yeast
Notes: mostly zero background
Reference: not given
Reading: higher = stronger interaction
B1: RNF43 RING domain (UniProt Q68DV7); chain SGSSCSSAPVCAICLEEFSEGQELRVISCLHEFHRNCVDPWLHQHRTCPLCMFNITEGDSFS
B2: RNF149 RING domain (UniProt Q8NC42); chain EKGIDVDAENCAVCIENFKVKDIIRILPCKHIFHRICIDPWLLDHRTCPMCKLDVIKALGYW
B3: TRIM55 RING domain (UniProt Q9BYV6); chain TMDNLEKQLICPICLEMFTKPVVILPCQHNLCRKCASDIFQASNPYLPTRGGTTMASGGRFRCPSCRHEVVLDRHG
B4: RNF112 RING domain (UniProt Q9ULX5); chain QPMAPRELPTCSICLERLRDPISLDCGHDFCIRCFSTHRLPGCEPPCCPECRKICKQKRGLR
B5: RNF4 RING domain (UniProt P78317); chain TGLRPSGTVSCPICMDGYSEIVQNGRLIVSTECGHVFCSQCLRDSLKNANTCPTCRKKINHKRYHP
B6: TRIM10 RING domain (UniProt Q9UDY6); chain SVTSLADEVNCPICQGTLREPVTIDCGHNFCRACLTRYCEIPGPDLEESPTCPLCKEPFRPGSFRP
B7: UBE4A RING domain (UniProt Q14139); chain LQQQEEETYADACDEFLDPIMSTLMCDPVVLPSSRVTVDRSTIARHLLSDQTDPFNRSPLTMDQIRPNTELKEKIQRWLAERKQQKEQLE
B8: PHF7 RING domain (UniProt Q9BWX1); chain IQHGHVGEESCILCCEDLSQQSVENIQSPCCSQAIYHRKCIQKYAHTSAKHFFKCPQCNNRKEFPQEML
B9: TRIM3 RING domain (UniProt O75382); chain VQPMDKQFLVCSICLDRYQCPKVLPCLHTFCERCLQNYIPAQSLTLSCPVCRQTSILPEQGV
Residues (chain): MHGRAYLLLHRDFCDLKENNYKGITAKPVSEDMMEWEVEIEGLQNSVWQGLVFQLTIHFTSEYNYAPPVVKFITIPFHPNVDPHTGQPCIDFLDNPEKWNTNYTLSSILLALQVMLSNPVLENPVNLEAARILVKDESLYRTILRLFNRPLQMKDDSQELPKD
Molecule | lacZ reporter activity
B1 (RNF43 RING domain) | 0
B2 (RNF149 RING domain) | 0
B3 (TRIM55 RING domain) | 18000
B4 (RNF112 RING domain) | 0
ISNDSETLEECMVCSDMKRDTLFGPCGHIATCSLCSPRVKKCLICKEQVQSRTKIE (MIB1 RING domain (UniProt Q86YT6)) | 13200
MANWVFCNRCFQPPHRTSCFSLTNCGHVYCDACLGKGKKNECLICKAPCRTVLLSK (RNF212 RING domain (UniProt Q495C1)) | 0
B5 (RNF4 RING domain) | 0
B6 (TRIM10 RING domain) | 0
FLKKLEQSFMCVCCQELVYQPVTTECFHNVCKDCLQRSFKAQVFSCPACRHDLGQNYIMI (UHRF2 RING domain (UniProt Q96PU4)) | 14600
B7 (UBE4A RING domain) | 0
B8 (PHF7 RING domain) | 4470
SYEDKSNDFVCPICFDMIEEAYMTKCGHSFCYKCIHQSLEDNNRCPKCNYVVDNIDHLY (COP1 RING domain (UniProt Q8NHY2)) | 0
B9 (TRIM3 RING domain) | 13700
KRQCSDVDDICSICQAEFQKPILLICQHIFCEECMTLWFNREKTCPLCRTVISDHINKW (RNFT1 RING domain (UniProt Q5M7Z0)) | 14700

Block 6
Target: CCNB1, cyclin fold, Cln2 fusion (human)
Technique: yeast growth competition, sequencing
Medium: yeast
Notes: weak parent motif
Reference: not given
Reading: higher = stronger binding
Parent: DTL docking peptide (human); PSSMRKICTYFHR
Change | normalised enrichment score
I7A | 0.12
P1A | 0.108
F11A | 0.575
S2A | -0.0352
C8A | -0.119
H12A | 0.336
K6A | 0.197

Some of these lines once more (block 3):
Change | relative binding score [%]
C60K | -6.91
S104M | 1.63
R45T | 1.57
H110T | 50.7
A84L | 20.5
S42A | 26.4
Y18A | 1.21
